Experimental data gathered from unrelated publications.
Numbered parts are unrelated; each lists some results of a single study. Substitutions count along the parent as printed.

Series 1 — method: DHFR PCA, deep sequencing; medium: yeast; with: (+)-ABA 4.8 µM; reference: wild-type fitted maximum; direction: higher = stronger binding; quantity: relative binding score
Target: ABI1, truncated, D143A, DHFR fusion (Arabidopsis thaliana)
Notes: methotrexate growth selection, single substitutions
Starting sequence: PYL1, truncated, DHFR fusion (Arabidopsis thaliana); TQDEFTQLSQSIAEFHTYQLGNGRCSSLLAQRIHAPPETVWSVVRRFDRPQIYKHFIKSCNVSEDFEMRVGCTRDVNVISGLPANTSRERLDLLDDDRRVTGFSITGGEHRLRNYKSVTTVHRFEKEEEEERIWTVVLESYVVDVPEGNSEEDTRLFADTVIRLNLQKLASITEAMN; partner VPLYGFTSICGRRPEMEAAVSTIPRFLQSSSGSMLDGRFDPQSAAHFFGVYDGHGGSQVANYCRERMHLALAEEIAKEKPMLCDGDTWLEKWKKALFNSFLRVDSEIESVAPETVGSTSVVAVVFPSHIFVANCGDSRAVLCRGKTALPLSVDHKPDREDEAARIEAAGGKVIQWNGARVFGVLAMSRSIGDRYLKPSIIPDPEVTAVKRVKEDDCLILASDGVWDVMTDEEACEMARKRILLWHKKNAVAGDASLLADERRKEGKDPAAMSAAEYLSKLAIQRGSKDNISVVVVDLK
L112E: 4.05%
R99C: 61.7%
T1D: 72.5%
V121L: 47.5%
D95H: -5%
S63M: 54.2%
I79A: 55.3%
N114W: -2.73%
V143L: 6.11%
D96L: 3.8%
Q7A: 78.2%
E151C: 72.6%
D65L: 32.1%
S104D: -11.7%

Series 2 — method: protein-binding microarray; form: double-stranded DNA, one strand shown; medium: in vitro; tested at: 2200 nM top; notes: 60-bp whole probe; with: salmon DNA 0.4 mg/ml; reference: random background probes; direction: higher = stronger binding; quantity: fitted relative affinity; shared flanks, not repeated: GCCTAGCAC … GTCTTGATTCGCTTGACGCTGCTG
Target: Interferon regulatory factor 7, full length, phosphomimetic (IRF7, Homo sapiens, UniProt Q92985, residues 1-503, S471D/S472D/S475D/S476D/S477D/S483D/S484D/S487D)
Residues (chain): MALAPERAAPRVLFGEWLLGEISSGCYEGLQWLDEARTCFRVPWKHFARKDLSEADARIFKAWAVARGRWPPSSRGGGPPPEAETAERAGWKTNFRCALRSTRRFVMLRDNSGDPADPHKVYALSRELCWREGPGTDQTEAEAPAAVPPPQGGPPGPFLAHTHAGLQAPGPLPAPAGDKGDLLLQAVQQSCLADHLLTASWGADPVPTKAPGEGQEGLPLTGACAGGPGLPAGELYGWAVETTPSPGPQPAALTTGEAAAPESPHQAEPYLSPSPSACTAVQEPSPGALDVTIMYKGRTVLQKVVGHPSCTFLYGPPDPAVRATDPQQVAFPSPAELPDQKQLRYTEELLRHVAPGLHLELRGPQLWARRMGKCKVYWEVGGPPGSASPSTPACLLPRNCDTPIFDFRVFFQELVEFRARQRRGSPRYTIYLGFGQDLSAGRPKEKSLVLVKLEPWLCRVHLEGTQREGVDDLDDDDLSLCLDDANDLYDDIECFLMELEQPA
GACGATATCAATATCGAGACGTGCTAG: 0.161 z-score
TTAGGTATACTTTTCCTTTAGTGCTAG: 2.06 z-score
AAATATTTACCTCTCACGCAGTGCTAG: 0.227 z-score
CTAGGTTTCCTTTCCCTTTAGTGCTAG: 5.12 z-score
GATGGACTGGGGTATCGGGACGTGCTA: -0.515 z-score
AGTGGAGTTCATTGTCATTTGTGCTAG: 0.337 z-score
GACGGTCTCGGTTTCAGGACGTGCTAG: 2.08 z-score
TTAGATATCAGTGTCGATTAGTGCTAG: -0.0393 z-score
GCACCTCTAGACTCTAAATTCGTGCTA: 0.658 z-score
GACGGACTGGGGTCTCGGGACGTGCTA: -0.824 z-score
TCAATTGTCTCTGTCCCACTGTGCTAG: 1.61 z-score
TCTACTTCTGTTTTTGCTTTGTGCTAG: 4.29 z-score
TCCATTTTGTGTTTTCATTTGTGCTAG: 3.6 z-score
TTAGGCCTGGGGTATCGGTTAGTGCTA: -0.806 z-score
TTTCATTTTTTTTCATCATTGTGCTAG: 6.86 z-score
CAGCATGCCTGTCCCTGGGTGTGCTAG: -0.443 z-score
TTAGGAATCGGTTTCGGTTAGTGCTAG: 6.89 z-score
TTAGCACTGCTTTTCCTTTAGTGCTAG: 1.79 z-score
TCACTTTACTTTCTTTTACTGTGCTAG: 4.89 z-score

Series 3 — method: aptamer microarray, sandwich; form: DNA with 2'F-ANA; medium: in vitro; tested at: 200 nM; with: Cy3 exosite-II aptamer, 400 nM; direction: higher = stronger binding; quantity: mean fluorescence intensity; oligonucleotide: GGTTGGTGTGGTTGG
Target: Prothrombin, mature alpha-thrombin (F2, Homo sapiens, UniProt P00734)
Notes: whole 15-mer aptamer, many near background
2'F-ANA at 1 5 7 8 9 11 12 15: 94 a.u.
2'F-ANA at 1 3 4 5 6 7 9 11 12 13 14: 56.4 a.u.
2'F-ANA at 2 3 4 5 8 10: 65 a.u.
2'F-ANA at 4 7 8 10 11 13 14: 59.4 a.u.
2'F-ANA at 1 3 5 6 8 9 10 12 15: 54.1 a.u.
2'F-ANA at 4 7 14: 216 a.u.
2'F-ANA at 3 4 5 8 10 14: 50.7 a.u.
2'F-ANA at 2 3 4 6 8 9 10 13 14: 156 a.u.
2'F-ANA at 2 6 7 10 12: 162 a.u.
2'F-ANA at 2 3 4 7 12 13 14: 370 a.u.
2'F-ANA at 2 3 5 6 7 11 12 14 15: 81.5 a.u.
2'F-ANA at 1 3 9 12 14: 97.9 a.u.
2'F-ANA at 1 2 5 7 11 12 15: 79 a.u.
2'F-ANA at 3 4 6 7 8 11 13 14 15: 244 a.u.
2'F-ANA at 2 4 6 8 10 15: 87.8 a.u.
2'F-ANA at 1 3 4 5 7 8 9 12: 141 a.u.
2'F-ANA at 2 3 4 7 8 9 11 15: 541 a.u.
2'F-ANA at 1 2 3 5 7 9 11 13 14 15: 48.7 a.u.
2'F-ANA at 2 5 9 10 11 13 14 15: 44.7 a.u.
2'F-ANA at 1 2 4 5 7 8 11 13: 50.1 a.u.
2'F-ANA at 1 4 6 14 15: 51.1 a.u.
2'F-ANA at 1 3 6 9 12: 514 a.u.

Series 4 — target: CCNE1, cyclin fold, Cln2 fusion (human); method: yeast growth competition, sequencing; medium: yeast; notes: strong parent motif; reference: not given; direction: higher = stronger binding; quantity: normalised enrichment score
Starting sequence: PKMYT1 docking peptide (human); SFEPRNLLSLFED
F11A: 0.633
L8P: 0.0723
D13N: 2.33
P4C: 1.47
P4Q: 1.28
L8M: 2.41
D13H: 1.04
N6Q: 1.28
L10N: 1.86
L10W: 2.57
P4K: 0.691
N6P: 1.06
F2V: 0.631
L10Q: 2.08
E3N: 1.75

Series 5 — method: RNA Bind-n-Seq; form: RNA; medium: in vitro; tested at: not given; reference: input RNA pool; direction: higher = stronger binding; quantity: bound/input enrichment
Target: RING finger protein unkempt homolog, zinc fingers 1-6, GST-SBP tag (UNK, Homo sapiens, UniProt Q9C0B0, residues 30-357)
Notes: RNA with constant flanks, human-mouse chimeric sites, ends assumed
Shared flanks, not repeated: GGGAGUUCUACAGUCCGACGAUC … CAACAGAGGAUUGAGCAUCA
Target sequence (chain): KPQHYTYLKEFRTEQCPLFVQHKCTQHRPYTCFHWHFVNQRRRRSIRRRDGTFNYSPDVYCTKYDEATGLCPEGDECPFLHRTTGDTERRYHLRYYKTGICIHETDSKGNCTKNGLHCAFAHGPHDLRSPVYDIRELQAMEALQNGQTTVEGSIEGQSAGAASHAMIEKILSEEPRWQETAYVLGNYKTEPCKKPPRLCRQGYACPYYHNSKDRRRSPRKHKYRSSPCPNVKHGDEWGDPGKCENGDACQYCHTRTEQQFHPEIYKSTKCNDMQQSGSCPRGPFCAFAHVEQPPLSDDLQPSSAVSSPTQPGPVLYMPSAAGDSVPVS
UGACAAGGGCACUGCAGAGCCAUGCCUUUCCUUGACAUCCAGAAAAGGCUGGGCAUCAGCCUGGACCGAUGGUUGACGUUCCUAAGCGCAGAACAGCCCUAUAAGAACGCCGCUCGGUGC: 0.0497 ratio
UACUCAACUUUCUUGCCACAUUUUGAAUUCCAAGACAUUAUUCCUCCAGAUGACUUCCUAACGAGUGAUGAAGAAGUAGAUUUGGUUUUAUUUGGAAGUUUGAGAGGACAAGUUGUUGGA: 0.306 ratio
AGGAGGAGAUUAAAGGGUGAGAGUGGGGUGGAAGACUGUGUCAUGGCUCUGGAGACACUGUUCAGUGUCCUGCUUUCUCUUUGCAGACUGAUGGCCCCUUACACGCCCUUUCUGACUGAG: 0.0846 ratio
GAAUCCUACUCAGGCGGAUUUUGCAACACCAAGCUCAAGUAGCAAUUUCCAUAGUCACAGUAGGGUAGUUUUGGGGCUCUGUGGCCAGGGUUUUAUUCACAUGCAGGUUUGGAAAAUGUA: 0.83 ratio
AAAGAGUGGAUAGAAUGUGCACACGGGAUCGGUGGGACCCGGGCGAAAAAGGAGUGCAAGAUAGAGUUCGAUGACUUCGAAGAGUGCUUGCUUCGGCACAAAACGAUGAGGCGAAUGCAU: 0.285 ratio
AACUUCGUACAUAGAUUUCCCUUUGUAGCUGUUUCAAUUGGCUUCCUUGUGAAUAAAGAGAUGGAGUUUGGAAUUGUGUACAGCUGUGUGGAAGAUAAGAUGUACACCGGCAGGAAAGGG: 0.82 ratio
AGUACUGACUCAGGCGGAUUUUGCAACACCAAGCUCACAGCAGCAGCAUCUUAGUCACAGUAGGGUAGUUUUGGGGCUCUGUGGCCAGGGUUUUAUUCACAUGCAGGUUUUGAAAAUGUA: 2.74 ratio
UGGCGCCUGCGCUCCCCGUUUUUAAAUUUAAGUGUAUUUUUAUAAGAUACAUGUAUUUACAAUUGAGCUUUUGUUACAUAAUGCUGAAAACAUCUCUGAGAUUAUGAAAAAUGUUUCAAU: 0.255 ratio
GCCACCAGAUCCCAGAAACAUGACCCUUGCUGCCUACAAAGAGAAGAUGAAGGAACUCCCGCUGGUGUCCUUGUUCUGCUCCUGCUUCUUGUCUGAUCCCCUGAAUAAGUCGUCCUACAA: 0.367 ratio
GAGUCGAGCAAACUUGAAACAAUUCGUUAUCUUGCAGCCUCAGUGUUCACUUGCUUGUGGCAAUAGCUGGGGUUUUAUAGGUUCUGGAAGGAGAACUGACGAUGAUGCUGCCGCUGCUGC: 0.282 ratio
GAAACAUUUAAAUUUAAAGAAGCUGUUGUUUUAGGGAGUACGGACUUCCUAGAAGAUGAUAUAGAGAAAAUUGUAGAAGAACUGGGGAAAGAGUAUAAGGGCAACGCCUACCAUCUGAUG: 1.75 ratio

For quick reference, copied from above (series 2):
TTAGGTATACTTTTCCTTTAGTGCTAG: 2.06 z-score
TCTACTTCTGTTTTTGCTTTGTGCTAG: 4.29 z-score
TCCATTTTGTGTTTTCATTTGTGCTAG: 3.6 z-score
GATGGACTGGGGTATCGGGACGTGCTA: -0.515 z-score
GACGATATCAATATCGAGACGTGCTAG: 0.161 z-score
TTAGATATCAGTGTCGATTAGTGCTAG: -0.0393 z-score
TCACTTTACTTTCTTTTACTGTGCTAG: 4.89 z-score
GCACCTCTAGACTCTAAATTCGTGCTA: 0.658 z-score
TTAGGCCTGGGGTATCGGTTAGTGCTA: -0.806 z-score
CTAGGTTTCCTTTCCCTTTAGTGCTAG: 5.12 z-score
AAATATTTACCTCTCACGCAGTGCTAG: 0.227 z-score
TTTCATTTTTTTTCATCATTGTGCTAG: 6.86 z-score
GACGGTCTCGGTTTCAGGACGTGCTAG: 2.08 z-score
